Measured values from different studies.
A part holds a random share of what one study measured. Changes are numbered by the printed parent chain.

Series 1
Target: CCNA2, cyclin fold, Cln2 fusion (human)
Technique: yeast growth competition, sequencing
Matrix: yeast
Notes: strong parent motif
Reference: not given
Reading: higher = stronger binding
Starting sequence: CDKN1A docking peptide (human); SKACRRLFGPVDS
| Substitution | normalised enrichment score |
| --- | --- |
| SKACRRLRGPVDS [F8R] | 0.293 |
| SKACRYLFGPVDS [R6Y] | 1.66 |
| SKASRRLFGPVDS [C4S] | 5.17 |
| SKACRFLFGPVDS [R6F] | 1.38 |
| SKACRRLNGPVDS [F8N] | -0.0331 |
| SKACRRLFGPVRS [D12R] | 4.78 |
| SEACRRLFGPVDS [K2E] | 3.18 |
| SKACRRLDGPVDS [F8D] | 0.352 |

Series 2
Target: RNA binding protein fox-1 homolog 2, RRM domain, GST-SBP tag (RBFOX2, Homo sapiens, UniProt O43251-10, residues 100-194)
Technique: RNA Bind-n-Seq
Form: RNA
Matrix: in vitro
Tested at: 365 nM
Notes: natural RNA segment, single round, ends assumed
Reference: no-protein control
Reading: higher = stronger binding
Constant ends, left off below: GGGAGUUCUACAGUCCGACGAUC … UGGAAUUCUCGGGUGCCAA
Residues (chain): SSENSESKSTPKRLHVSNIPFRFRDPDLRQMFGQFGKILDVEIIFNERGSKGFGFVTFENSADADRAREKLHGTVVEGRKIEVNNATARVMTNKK
| Strand | RBNS enrichment (R) |
| --- | --- |
| UAGAGUUGCUCAGAAUCUUGUAGGGUUUUCUGAUCUGGUUACCUCUAGCUGCCAUGUGGGGUCCACCUCUUGCCUCAGCAACUUUCCAGGACCUUUGAACUUGCCAGAUA | 0.511 |
| GUGGACAUACUAGAGUUGAUUAUAGACACAUUGAUUUUGAAUAAGGAACUGCUGGCCGAGCCCGCUGGGAGUCUAGAAAGAGAAAAUCUGUUUCUAGACCUCAGUUAUUU | 0.423 |
| GCUCUAGGCUUGUCUCCAUGGGAACAGGAGGGGUGCCUUGUCAGCAAGCUCAUCCGCACAGAAGAGGGAAGAGGGAGAUGCGUGGGGAAACUGAGUGAGUCGGAUUCCUC | 0.925 |
| GGACCUGCUCUUCUCUAGUUCCAGAUCCUGAUGCUAAUUAAUCUCCUCCAGGACACCACAGUCCUUGCCCUACCACACCACAAGUAUUUGGGGGCUCAGCCCUGCCCGGU | 0.543 |
| AUCCACGGGACAAAAACAGCAAACUCCCUCAGACUUUGUCCAUGUAUAAACUUGAAGUGGUUGUGUUGUAGGGUUGCAGGUUUUUUGUUACGCUGCUGUCACUUUCUGUC | 0.662 |
| AGCCCUGUGCUCCGUGACUCCCACGCAUGAACUCAUCAGGGCCGUGUCUACUCCUUAAUUGUCACAUUAGAAUUUGGUCGGCCAUUGUUUUGGUUAUGUUGCUGAUGUAA | 15.7 |
| AUACUUUGCUGAUCUUUAAGCUAUCCAUGGGGGAAAUUUUAUACCAACGAGUUAAUAAUUCUCAUUCAUCGUUUACACAAUGUAACAUGUGUCAUACUGGGGCCAGCGAG | 0.503 |
| UAACUACAGCACAGGCUACCUUGCUGAUGUGUCCAUGUCACUGGUCUCCCUUUUAGCUAAAAUCUGAGAGUAGAAUAACCUGAUCUUUGAGGCCUCUUCCAAUGUUAGUC | 0.318 |
| CUGUCUUUAAAGCCAAGAAAGUAGUAAUUAAGUAGCCUAGAUUUAAGGAGGGUAGAAUAAGCAUUUAUUCCCCUGCCUUCCAAAUUGAAGAGGAGGACUUGGCCUCAAGC | 0.377 |
| UUCAGAAGGCAACAGGGAGUCCCUAAGAAUGUUUUUCAAAAAGGGACAUUAAGGCGAUUGGAGUUAUACUUGGAAAAGAAAGUUCUGGCCACAGUACAGAGCAUGGCCCG | 0.842 |
| GCCCUAGGCACUGAUAGUUGCCUUUUCUUCCCCUCCUGUAAGAGUAUUAACAAAACCAAAGGACACAAGGGUGCAAGCCCCAUUCACGGCCUGGCAUGCAGCUUGUCCUU | 0.484 |
| ACAAGCACUUGCACACAUGUGGACUCCUAACCAUGCUAACCUCACUGGCUGGGAAGGUGGGGACCCCAUGGGCCAGCCCUUGCAGGAGGCCCUUUUGCAAGGCUUAGGGU | 1.23 |

Series 3
Target: ABI1, truncated, D143A, DHFR fusion (Arabidopsis thaliana)
Technique: DHFR PCA, deep sequencing
Matrix: yeast
Notes: methotrexate growth selection, single substitutions
With: (+)-ABA 4.8 µM
Reference: wild-type fitted maximum
Reading: higher = stronger binding
Starting sequence: PYL1, truncated, DHFR fusion (Arabidopsis thaliana); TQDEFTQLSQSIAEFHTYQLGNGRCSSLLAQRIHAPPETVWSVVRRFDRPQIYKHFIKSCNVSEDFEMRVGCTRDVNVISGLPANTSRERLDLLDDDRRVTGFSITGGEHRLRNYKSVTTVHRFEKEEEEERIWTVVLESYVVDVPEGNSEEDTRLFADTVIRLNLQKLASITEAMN
| Substitution | relative binding score |
| --- | --- |
| T119K | 7.96% |
| N177H | 88.1% |
| A30S | 79.2% |
| D3P | 75% |
| S27T | 5.64% |
| E109H | 28.8% |
| S140E | -4.6% |
| K54A | -2.65% |
| S104Y | -17.5% |
| A170T | 29.5% |
| E127I | 64.3% |
| L8V | 40.6% |
| V145E | -8.83% |

Other studies, line by line
| Molecule | target | test | system | setting | scale | quantity | result |
| --- | --- | --- | --- | --- | --- | --- | --- |
| PhoQ, residues 284 288 289 292 302 303 AAQSYM | PhoP, residues 12 14 15 18 19 QYCSL (Escherichia coli, UniProt P23836) | Sort-seq, measured: YFP reporter | E. coli | PhoQ-PhoP variant library, with: 10 µM Mg2+ | reference: high Mg2+ state, higher = stronger signaling | fold induction | 3.71 |

A few entries again (series 1):
| Substitution | normalised enrichment score |
| --- | --- |
| SKACRFLFGPVDS [R6F] | 1.38 |
| SKACRRLNGPVDS [F8N] | -0.0331 |
| SKACRRLFGPVRS [D12R] | 4.78 |
| SEACRRLFGPVDS [K2E] | 3.18 |
